Assay results gathered from unrelated publications.
Each line is one published result; not all experiments were run side by side. Numbers after ± are the reported error.

SMILES | assay | system | setting | scale | measurement | value
CC[C@H](C)C(=O)N1CCC(NC(=O)Nc2ccc(OC(F)(F)F)c(F)c2)CC1 | – | human, plasma | oral, 8 mg, single dose, fasted, healthy volunteers | – | CL/F | 2.51 L/h
O=c1cc(-c2ccccc2)oc2c(Br)c(O)c(O)c(O)c12 | – | C57BL/6 mouse, plasma | oral, 250 mg/kg, single dose | – | MRT(0-inf) | 8.8 h
C/C(=N\OCCCN1CCCCC1)c1ccc(C(F)(F)F)cc1 | metabolic stability | mouse, liver microsomes | – | – | scaled CLint | 145 mL/min/kg
COc1cc(NC(=O)C(=O)c2c(C)n(Cc3ccc(Cl)cc3)c3ccc(C)cc23)ccn1 | – | cynomolgus monkey, plasma | intravenous, 1 mg/kg | – | clearance | 8 to 11 mL/min/kg
COc1ccc(F)cc1S(=O)(=O)Nc1cnc2c(c1)C(=O)NCCO2 | – | male C57BL/6 mouse, plasma | oral, 0.3 mg/kg, single dose | – | Cmax | 59.7 ng/mL
N=C(N)NCc1ccc(C(=O)NCCCC[C@H](NC(=O)N[C@@H](CCC(=O)O)C(=O)O)C(=O)O)cc1[211At] | – | SCID mouse, PC-3 xenografts, spleen | 2 h | – | tissue uptake | 6.81 ± 3.2 %ID/g
COC(=O)C[C@](O)(CCCC(C)(C)OC(C)=O)C(=O)O[C@@H]1C(OC)=C[C@]23CCCN2CCc2cc4c(cc2[C@H]13)OCO4 | – | CD1 mouse, large intestine | subcutaneous, 1 mg/kg, 2 h | – | tissue concentration | 221 ng/mL
[3H]c1sc(C)nc1C=C(C)C1CC2C(CCCC(C)C(O)C(C)C(=O)C(C)(C)C(O)CC(=O)O1)N2CCO (stereo not shown) | LC-MS/MS | CD2F1 mice tumour-bearing, heart | intravenous, 2.2 nmol/kg, 24 h | – | tissue concentration | 330 ± 70 ng/g
CCc1c2c(nc3ccc(OC4OC(C(=O)O)C(O)C(O)C4O)cc13)-c1cc3c(c(=O)n1C2)COC(=O)C3(O)CC (stereo not shown) | – | human patients, plasma | intravenous, 100 mg/m^2 of parent drug | – | Cmax | 113 ng/mL
CC[C@@H]1C[C@]1(NC(=O)[C@@H]1C[C@@]2(CN1C(=O)[C@@H](NC(=O)[C@@H](NC(=O)[C@@H]1CCCCN1C(C)C)C1CCCCC1)C(C)(C)C)C(C)(C)C21CCC1)C(=O)NS(=O)(=O)N1CCCC1 | refers to: Pain | healthy human | oral, 10 mg, added: ritonavir 100 mg | – | subjects with adverse event | 0%
[2H]C([2H])([2H])C([2H])([2H])C([2H])([2H])OC(C(=O)OC1CCNCC1)(c1ccccc1)c1ccccc1 | – | healthy Japanese male subjects, plasma | oral, 12 mg once daily, day 16, fed, mean | – | Cmax | 136 ng/mL
CC(C)C[C@H](NC(=O)[C@H](Cc1ccccc1)NC(=O)CNC(=O)C/C=C(\F)[C@@H](N)Cc1ccc(O)cc1)C(=O)O | – | BALB/c mice, brain | intravenous, 50 mg/kg | – | time to undetectable level | ≤ 20 min
CC(C)[C@@H]1NC(=O)[C@H](Cc2ccccc2)NC(=O)[C@H](Cc2ccc(O)cc2)NC(=O)CCSSC[C@@H](C(=O)N2CCC[C@H]2C(=O)N[C@H](CCCNC(=N)N)C(=O)NCC(N)=O)NC(=O)[C@H](CCC(N)=O)NC1=O | – | Wistar rat | intravenous, 10 µg/kg single dose, 72 h | – | body weight | 226 ± 10.9 g
C[C@H]1C(OC(=O)C(Cl)Cl)O[C@@H]2O[C@@]3(C)CC[C@H]4[C@H](C)CCC1[C@@]24OO3 (stereo partly shown) | – | Tg(fli1:EGFP) zebrafish embryos | 1.0 µg/mL, up to 48 hpf | – | dead embryos | 0 count
CSCC[C@H](NC(=O)CNC(=O)[C@H](CC(=O)O)NC(=O)[C@@H](NC(=O)[C@@H](NC(=O)[C@@H](NC(=O)CNC(=O)[C@H](CCC(N)=O)NC(=O)[C@H](CCSC)NC(=O)[C@H](CC(=O)O)NC(=O)[C@H](C)NC(=O)[C@H](C)NC(=O)[C@@H](NC(=O)[C@H](CO)NC(=O)[C@@H](N)CC(C)C)[C@@H](C)O)C(C)C)C(C)C)[C@@H](C)O)C(=O)N[C@@H](C)C(=O)N[C@@H](CO)C(=O)NCC(=O)N[C@@H](CC(C)C)C(=O)N[C@@H](CC(=O)O)C(=O)N[C@@H](CCCCN)C(=O)N[C@@H](CC(=O)O)C(=O)N[C@@H](Cc1ccc(O)cc1)C(=O)N[C@@H](CC(C)C)C(=O)N[C@@H](CCCCN)C(=O)N1CCC[C@H]1C(=O)N[C@@H](CC(=O)O)C(=O)N[C@@H](CC(=O)O)C(=O)O | – | human, serum | intravenous, 1.66 mg/kg, patients, infusion | – | clearance | 21 mL/min/kg
C[C@H](NCc1ccc(-c2ccc(C(F)(F)F)cc2)cc1)C(N)=O | – | Sprague Dawley rat | oral, 200 mg/kg/day, 14 days | – | toxicity | not toxic

SMILES | assay | system | setting | scale | measurement | value
O=C(CN1CCN(c2cc3c(cc2F)c(=O)c(C(=O)O)cn3C2CC2)CC1)Nc1ccc(Cl)cc1 | two-compartment model, refers to: k21 | BALB/c mice, female | iv, 3.75 mg/kg | – | rate constant | 0.0325 min⁻¹
CCCCCCCCCCCCC(=O)O.O=C1CCCC2C3CCCN4CCCC(CN12)C34 (stereo not shown) | shake-flask | simulated gastric fluid | pH 1.2, 37 °C | – | log octanol-water partition coefficient | -0.33
CN(C)C(CNC(=O)Nc1cc(C(F)(F)F)ccc1N1CCOCC1)c1ccncc1 (stereo not shown) | – | mouse, serum | intraperitoneal, 240 mg/kg single dose | – | serum glucose | 236 mg/dL
COc1ccc(NC(=O)Cn2c(=O)c3ccccc3n(CC(=O)Nc3cc([125I])c(OC)cc3OC)c2=O)cc1 | – | rat, spleen | intravenous, 30 min | – | tracer uptake | 0.06 %ID/g
Cc1ccc(/C=C/C(=O)O)cc1-c1cc2c(cc1C)C(C)(C)CCC2(C)C | – | Sprague-Dawley rat, male, plasma | oral, 100 mg/kg, 2 h, sesame oil vehicle | – | HDL level | 66 ± 6.1 mg/dL
CC[C@H](C)[C@H](NC(=O)CNC(=O)[C@H](CC(=O)O)NC(=O)[C@H](CCCNC(=N)N)NC(=O)[C@@H](NC(=O)[C@H](CC(N)=O)NC(=O)[C@H](CCC(N)=O)NC(=O)CNC(=O)[C@@H](NC(=O)[C@H](CCCCN)NC(=O)[C@H](CCC(=O)O)NC(=O)[C@@H](NC(=O)[C@H](CCCCN)NC(=O)[C@H](CCCCN)NC(=O)[C@H](Cc1ccccc1)NC(=O)[C@H](CC(C)C)NC(=O)[C@H](CCCCN)NC(=O)[C@H](Cc1c[nH]c2ccccc12)NC(=O)[C@@H](N)CCCCN)[C@@H](C)CC)C(C)C)[C@@H](C)CC)C(=O)N[C@H](C(=O)N[C@@H](CCCCN)C(=O)N[C@@H](C)C(=O)NCC(=O)N1CCC[C@H]1C(=O)N[C@@H](C)C(=O)N[C@H](C(=O)N[C@@H](C)C(=O)N[C@H](C(=O)N[C@H](C(=O)NCC(=O)N[C@@H](CCC(N)=O)C(=O)N[C@@H](C)C(=O)N[C@H](C(=O)N[C@@H](CCC(N)=O)C(=O)N[C@H](C(=O)N[C@@H](C)C(=O)N[C@@H](CCCCN)C(N)=O)[C@@H](C)CC)[C@@H](C)O)C(C)C)C(C)C)C(C)C)[C@@H](C)CC | circular dichroism | POPC vesicles 5 mM | 20 µM, fully membrane bound | – | helicity | 63%
CCCC[C@H]1C(=O)N(C)[C@@H](CCCC)C(=O)N[C@@H](CCCNC(=O)CN2CCN(CC(=O)O)CCN(CC(=O)O)CCN(CC(=O)O)CC2)C(=O)N[C@H](C(=O)NCC(N)=O)CSCC(=O)N[C@@H](Cc2ccc(O)cc2)C(=O)N(C)[C@@H](C)C(=O)N[C@@H](CC(N)=O)C(=O)N2CCC[C@H]2C(=O)N[C@@H](Cc2c[nH]cn2)C(=O)N[C@@H](CC(C)C)C(=O)N(C)CC(=O)N[C@@H](Cc2c[nH]c3ccccc23)C(=O)N[C@@H](CO)C(=O)N[C@@H](Cc2c[nH]c3ccccc23)C(=O)N1C [gallium-68 labelled] | static PET | NOD/SCID mice, CHO-hPD-L1 xenograft, CHO-hPD-L1 tumour | intravenous, 1 h post injection, before atezolizumab treatment | – | tumour uptake | 5.33 ± 0.25 %ID/g
C#Cc1c(F)ccc2cc(O)cc(-c3ncc4c(N5CC6CCC(C5)N6C(=O)OCCCCC)nc(OC[C@@]56CCCN5C[C@H](F)C6)nc4c3F)c12 | – | mouse whole blood | 60 min | – | parent drug release | not detected
O=C(O)CC[C@H](NC(=O)O[C@@H](CCCCNC(=O)c1ccc([18F])cc1)C(=O)O)C(=O)O | – | mouse, PC-3 PIP/flu xenografts, kidney | 180 min | – | tissue uptake | 0.5 ± 0.18 %ID/g
CCCCC[C@@H]1OC(=O)[C@@H](C)N(C)C(=O)[C@H](CCCCC)OC(=O)[C@@H](C)N(C)C(=O)[C@H](CCCCC)OC(=O)[C@@H](C)N(C)C(=O)[C@H](CCCCC)OC(=O)[C@@H](C)N(C)C1=O | – | Caco-2 | 10 µM, 2 h, pH 7.4 | – | efflux ratio | 1.3
O=C(NCCNCCO)c1cn(Cc2ccccc2)c2cc(OCc3ccc(C(F)(F)F)cc3)c(Cl)cc2c1=O | metabolic stability | human, liver microsomes | 1 µM | – | microsomal CLint | < 11.6 µL/min/mg
C1=CCCC=CCC1.C1=CCCC=CCC1.[Cl][Hg-]([Cl])[Cl].[Cl][Hg-]([Cl])[Cl].[Pt+][c]1ccccc1P(=Nc1ccccc1)(c1ccccc1)c1ccccc1.[Pt+][c]1ccccc1P(=Nc1ccccc1)(c1ccccc1)c1ccccc1 | – | rat | 20 µM | – | absorption rate constant | 2 h⁻¹
CC[C@H](C)[C@@H]1NC(=O)[C@H](CCCCN)NC(=O)[C@H](CCCCN)NC(=O)[C@H](Cc2ccc(O)cc2)NC(=O)[C@H](CC(C)C)NC(=O)[C@@H]2CCCN2C(=O)[C@H](C)NC(=O)CNC(=O)CNC(=O)[C@H](CO)NC(=O)CNC(=O)CNC(=O)[C@H](CO)NC(=O)[C@H](CCC(=O)O)NC(=O)[C@H](CC(C)C)NC(=O)[C@H](CC(C)C)NC(=O)[C@H](CCCNC(=N)N)NC(=O)[C@H](CCCCN)NC(=O)[C@H]([C@@H](C)CC)NC(=O)[C@H]([C@@H](C)CC)NC(=O)[C@H](CCCCN)NC(=O)[C@H](CCCCN)NC(=O)[C@H](Cc2ccc(O)cc2)NC(=O)[C@H](CC(C)C)NC(=O)[C@@H]2CCCN2C(=O)[C@H](C)NC(=O)CNC(=O)CNC(=O)[C@H](CO)NC(=O)CNC(=O)CNC(=O)[C@H](CO)NC(=O)[C@H](CCC(=O)O)NC(=O)[C@H](CC(C)C)NC(=O)[C@H](CC(C)C)NC(=O)[C@H](CCCNC(=N)N)NC(=O)[C@H](CCCCN)NC(=O)[C@H]([C@@H](C)CC)NC1=O | – | 25% human serum | 50 µM, 24 h | baseline: 0 h control | remaining intact peptide | 75.8 ± 1.1%
CC[C@H](C)[C@H](NC(=O)[C@H](Cc1ccccc1)NC(=O)[C@H](CC(=O)O)NC(=O)[C@H](CCCNC(=N)N)NC(=O)[C@H](Cc1ccccc1)NC(=O)[C@H](Cc1ccccc1)NC(=O)[C@H](CCCCN)NC(=O)[C@H](CO)NC(=O)[C@H](CC(C)C)NC(=O)[C@H](CCCNC(=N)N)NC(=O)[C@H](CCSC)NC(=O)[C@H](C)N)C(=O)N[C@@H](CCCN)C(=O)N[C@@H](CCC(N)=O)C(=O)N[C@@H](CCCNC(=N)N)C(=O)N[C@@H](CCCCN)C(=O)N[C@@H](CCCCN)C(=O)O | circular dichroism | 20% TFE in PBS | 200 µM, pH 7.4, 25 °C | – | helicity | 16.6%
Nc1ccc(OC(=O)NC2CCCCC2)cc1-c1ccccc1 | – | rat liver S9 fraction | added: NADPH-regenerating system | – | log hydrolysis rate constant | -0.86

For quick reference, copied from above:
SMILES | assay | system | setting | scale | measurement | value
[2H]C([2H])([2H])C([2H])([2H])C([2H])([2H])OC(C(=O)OC1CCNCC1)(c1ccccc1)c1ccccc1 | – | healthy Japanese male subjects, plasma | oral, 12 mg once daily, day 16, fed, mean | – | Cmax | 136 ng/mL
CC(C)C[C@H](NC(=O)[C@H](Cc1ccccc1)NC(=O)CNC(=O)C/C=C(\F)[C@@H](N)Cc1ccc(O)cc1)C(=O)O | – | BALB/c mice, brain | intravenous, 50 mg/kg | – | time to undetectable level | ≤ 20 min
CC(C)[C@@H]1NC(=O)[C@H](Cc2ccccc2)NC(=O)[C@H](Cc2ccc(O)cc2)NC(=O)CCSSC[C@@H](C(=O)N2CCC[C@H]2C(=O)N[C@H](CCCNC(=N)N)C(=O)NCC(N)=O)NC(=O)[C@H](CCC(N)=O)NC1=O | – | Wistar rat | intravenous, 10 µg/kg single dose, 72 h | – | body weight | 226 ± 10.9 g
C[C@H]1C(OC(=O)C(Cl)Cl)O[C@@H]2O[C@@]3(C)CC[C@H]4[C@H](C)CCC1[C@@]24OO3 (stereo partly shown) | – | Tg(fli1:EGFP) zebrafish embryos | 1.0 µg/mL, up to 48 hpf | – | dead embryos | 0 count
